Published values gathered from unrelated publications.
Each line is one published result; not all experiments were run side by side. “And” joins repeats or separate records; there may be more than shown. ± gives the spread as reported.

Structure (SMILES) | assay | system | conditions | scale | measurement | result
CC(C)[C@H](NC(=O)[C@@H]1CCCN1C(=O)[C@H](CCCNC(=N)N)NC(=O)[C@H](CS)NC(=O)[C@H](Cc1c[nH]c2ccccc12)NC(=O)[C@H](CCCNC(=N)N)NC(=O)[C@@H](Cc1ccccc1)NC(=O)[C@H](Cc1c[nH]cn1)NC(=O)[C@H](CCC(=O)O)NC(=O)[C@H](CS)NC(=O)[C@H](CS)NC(=O)[C@H](CCCCN)NC(=O)[C@@H]1CC(=O)N[C@@H](CCCNC(=N)N)C(=O)N[C@@H](C(C)C)C(=O)N[C@@H](CC(=O)O)C(=O)N[C@H](Cc2ccc(O)cc2)C(=O)N1)C(N)=O [technetium-99m labelled] | – | C57 mouse, female, B16/F1 melanoma, muscle | intravenous, 2 h, with: NDP-MSH 10 µg co-injected | – | tissue uptake | 0.03 ± 0.02 %ID/g
CS/C(S)=N/CCCC[S+](C)[O-] (racemic) | RT-PCR, measured: Cyp2b15 | rat, mammary gland | oral gavage, 200 mg/kg, dosed for four days | reference: vehicle | mRNA fold change | 0.095
Cc1cc(Nc2ncc(Cl)c(Nc3ccccc3S(=O)(=O)C(C)C)n2)c(OC(C)C)cc1C1CCNCC1 | measured: unbound drug | human, plasma | oral, 750 mg/day | – | Css,max | 0.025 µmol/L and 0.042 µmol/L and 0.021 µmol/L
Cn1c(-c2ccc(C(N)=O)cc2F)nnc1C(C)(C)Oc1c(F)cc(Cl)cc1F | – | young Japanese adults, plasma | oral, 50 mg single dose, day 1, high-dose multiple-dose study | – | Tmax range over subjects | 1 to 8 h
Nc1cc(F)ccc1NC(=O)c1ccc(CNC(=O)/C=C/c2cccnc2)cc1 | – | Japanese patients, urine | oral, 30 mg, cycle 1 day 1, arithmetic mean | – | renal clearance | 31.3 mL/min
Cc1cc(C)c(C#N)c(SCC(=O)c2ccc(Cl)cc2)n1 | metabolic stability | human, liver microsomes | 0.5 µM, pH 7.4 | – | microsomal CLint | 620 µL/min/mg
CC1=C2C[C@H]3[C@@H](CC[C@@H]4C[C@H](NS(C)(=O)=O)CC[C@@]43C)[C@@H]2CC[C@@]2(C1)O[C@@H]1C[C@H](C)CN[C@H]1[C@H]2C | – | patients, plasma | oral, 130 mg daily, day 22, cycle 1 | – | Tmax | 3.13 h
CC(=O)N1CCC[C@H]1C(=O)N[C@@H](CCCNC(=N)N)C(=O)N[C@H](C(=O)N[C@@H](CC(=O)O)C(=O)N[C@H](C(=O)N[C@@H](CCCNC(=N)N)C(=O)N[C@H](C(=O)N[C@@H](CC(=O)O)C(=O)N[C@H](C(N)=O)C(C)C)C(C)C)C(C)C)C(C)C | rotational rheometry | 1% w/v aqueous solution | shear rate range 1-1000 s^-1 | – | viscosity | 658 ± 26.4 Pa·s
CNCc1ccc(-c2[nH]c3cc(F)cc4c3c2CCNC4=O)cc1 | – | human patients, plasma | oral, 360 mg twice daily, day 15, steady state, median | – | Tmax | 3.3 h

Repeated from above:
Structure (SMILES) | assay | system | conditions | scale | measurement | result
Nc1cc(F)ccc1NC(=O)c1ccc(CNC(=O)/C=C/c2cccnc2)cc1 | – | Japanese patients, urine | oral, 30 mg, cycle 1 day 1, arithmetic mean | – | renal clearance | 31.3 mL/min
